# Published values of several laboratories.
# Each line is one published result; not all experiments were run side by side. Several values in a cell are separate wells, animals, samples, runs or records.
Structure (SMILES),test,system,setting,how to read,quantity,result
N.N.O=C([O-])C1(C(=O)[O-])CCC1.[Pt+2],measured: non-protein-bound platinum,"human, plasma ultrafiltrate","target AUC 2, from 0, median, Bayesian estimate",,AUC to infinity,20 µg·h/mL
O=C(O)C(F)(F)C(F)(F)C(F)(F)C(F)(F)C(F)(F)C(F)(F)C(F)(F)F,two-compartment model,"human, plasma","oral, 50 mg single dose, geometric mean",,AUC,4470 µg·h/mL
O=c1ccc2ncc(=O)n3c2n1C[C@H]3CN1CCC(NCc2cc3c(cn2)OCCC3)CC1,,"healthy human volunteers, plasma","oral, dose not given, together with: rifampicin co-administration",reference: compound alone,AUC decrease,52% and ~50%
Cc1nnc2n1-c1ccc(Cl)cc1C(c1ccccc1)=NC2,,human female,"dose not given, day 22",reference: day 0,AUC change,-7.57%
CCOC(=O)C1=C(CN2CCOCC2)NC(c2nccs2)=NC1c1ccc(F)cc1Br (stereo not drawn),,healthy human,"oral, dose not given, high-fat meal vs fasted",,AUC,no effect
CC(=O)C[C@@H](c1ccccc1)c1c(O)c2ccccc2oc1=O,,human,"dose not given, alone",,AUC,19.2 µg·h/mL
CCN(CC)C(=O)[C@@H]1C=C2c3cccc4[nH]cc(c34)C[C@H]2N(C)C1,,human,"oral, 100 µg",,AUC extrapolated,0.674% and 4.3% and 2.97% and 2.17% and 5.23% and 1.42% and 0.989% and 0.966%
Cc1ncc2n1-c1ccc(Cl)cc1C(c1ccccc1F)=NC2,,"human, plasma","oral, dose not given, extrapolated DDI estimate, together with: rimegepant 75 mg daily",,AUC increase,< 50%
Cn1ncc(-c2nc(N[C@H]3CC[C@H](N)CC3)ncc2Cl)c1CC1CC1,,"human patients, plasma","oral, 3 mg, day 1",,AUC,0.125 µg·h/mL

# Repeated from above:
Structure (SMILES),test,system,setting,how to read,quantity,result
N.N.O=C([O-])C1(C(=O)[O-])CCC1.[Pt+2],measured: non-protein-bound platinum,"human, plasma ultrafiltrate","target AUC 2, from 0, median, Bayesian estimate",,AUC to infinity,20 µg·h/mL
